# Assay results collected from several papers.
# Every numbered part comes from another study and shows a few of its results, in no order. Substitutions count along the parent as printed.

# Series 1
# Target: ABI1, truncated, D143A, DHFR fusion (Arabidopsis thaliana)
# Technique: DHFR PCA, deep sequencing
# Medium: yeast
# Notes: methotrexate growth selection, single substitutions
# With: (+)-ABA 0.032 µM
# Relative to: wild-type fitted maximum
# Direction: higher = stronger binding
# Starting sequence: PYL1, truncated, DHFR fusion (Arabidopsis thaliana); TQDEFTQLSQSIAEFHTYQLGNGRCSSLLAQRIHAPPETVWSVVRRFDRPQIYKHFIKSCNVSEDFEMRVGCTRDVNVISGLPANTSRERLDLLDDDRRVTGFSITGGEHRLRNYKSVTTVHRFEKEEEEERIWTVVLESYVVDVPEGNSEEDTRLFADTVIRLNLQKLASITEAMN
Substitution,relative binding score [%]
I52H,5.75
L166W,2.01
N165G,3.57
V145W,-3.6
R90A,-1.32
Q2P,57.1
G21R,19.4
I12F,-1.23
K168W,12
H55A,21
R132G,52.7
E130F,11.8
A13H,16.2
F15K,2.16
Y141E,-1.09
F56V,-1.36
P83Q,13.9
F103H,1.43

# Series 2
# Target: CCNE1, cyclin fold, Cln2 fusion (human)
# Technique: yeast growth competition, sequencing
# Medium: yeast
# Notes: weak parent motif
# Relative to: not given
# Direction: higher = stronger binding
# Starting sequence: E2F8 docking peptide (human); FVPQRKLEVSTED
Substitution,normalised enrichment score
FVPARKLEVSTED [Q4A],-0.836
FVPQRKLEVATED [S10A],-0.0268
FVPQRKLELSTED [V9L],-0.215
AVPQRKLEVSTED [F1A],-0.322
FVPQRKLEVSTAD [E12A],-0.344
FVPQRKLAVSTED [E8A],-0.047
FVPQAKAEVSTED [R5A L7A],-0.421
FAPQRKLEVSTED [V2A],-0.0825
FVPQRKLEFSTED [V9F],0.533
FVPQKKLELSTED [R5K V9L],0.00291
FVPQRKLEASTED [V9A],-0.462

# Series 3
# Target: RING finger protein unkempt homolog, zinc fingers 1-6, GST-SBP tag (UNK, Homo sapiens, UniProt Q9C0B0, residues 30-357)
# Technique: RNA Bind-n-Seq
# Form: RNA
# Medium: in vitro
# Tested at: not given
# Notes: RNA with constant flanks, human and mouse sites, ends assumed
# Relative to: input RNA pool
# Direction: higher = stronger binding
# Shared flanks, not repeated: GGGAGUUCUACAGUCCGACGAUC … CAACAGAGGAUUGAGCAUCA
# Target sequence (chain): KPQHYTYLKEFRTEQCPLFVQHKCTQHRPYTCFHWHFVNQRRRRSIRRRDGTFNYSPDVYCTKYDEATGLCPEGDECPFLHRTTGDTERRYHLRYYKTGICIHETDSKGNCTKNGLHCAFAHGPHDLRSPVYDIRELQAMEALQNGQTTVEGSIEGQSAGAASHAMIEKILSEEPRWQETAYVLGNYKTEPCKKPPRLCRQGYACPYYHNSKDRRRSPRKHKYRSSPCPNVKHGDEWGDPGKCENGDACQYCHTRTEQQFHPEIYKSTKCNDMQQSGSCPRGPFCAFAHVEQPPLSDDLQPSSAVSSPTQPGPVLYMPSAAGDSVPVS
Strand,bound/input enrichment
GAUCAGAAUGGAAUGACGCCUUUAAUGUGGGCAGCAUAUAGAACACAUAGUGUGGAUCCAACUAGAUUGCUUUUAACAUUCAAUGUUUCAGUUAACCUUGGUGACAAGUAUCACAAAAAC,0.557 ratio
UAGUCAUAUUCCUGAGAAGUAGGAAACUAAAACUUCUUUUCAUAUAAUUGUUAGAAGGUUUGUUUCCCAAACUACCAUAGUUACAAAGGUGAAAAGCCAAAUUUUAGGAACAGAAUCAAA,5.99 ratio
AACAGUGAUAUAUGCAAGAAACCCUGUAGCGUAGCGCCUCAUGAUAGUCAGCUAAUUUCUAGUACUAUCCUAAUUAAUGAAAUGAAUGGAGUUGGAGAAAAAUUAUCAGCCAAGGAGAAC,2.27 ratio
GCUAGUAACAAUCGUUUAUUUCAGCUUGUAAUGAAAGGCCUGCUUUAUGAAUGCUGUGUAGAAUUUUGUCAGAGUAAAGCAACUGGAGAAGAAAUUACAGAAAGCGAAGUGCUUCUUGGC,0.453 ratio
UUCUACUUUGGUUCCCUGAGGCUCAAUUCUAUUCACAUCUCCCAGAGGUUCACGGUGGACAGCUUUGGAAACUAUGCCUCCUGCGGACAUGUUGACUUCUCCUGACGCGGGAGAGCAGCA,0.242 ratio
GUCAGGGUCGCCAGCGCCUCAGCUCUGUGGAGGAGCAGCAGUAGUCGGAGGGUGCAGGAUAUUAGAAAUGGCUACUCCCCAGUCAAUUUUCAUCUUUGCAAUCUGCAUUUUAAUGAUAAC,0.42 ratio
UGGGAAACAGGCAGGAAAGGCUGUGGGGUGGGGGUGGGGGACUGGUGUGGCACCGUGCAAACAAAAUGACAAAUUUCAACUCACAAUCUUUGUAAGAAAAUUGUUCCAGUUUGAAUCUUG,0.304 ratio
GAAGCUUUACAUGAGUUACUCAGUUUUGCUUGAAGCAGUUUAAUACCAUCUAUCAUAAAAGUAGCUACAACGUGUCGUGAGUGGAUUCAUUACAAAUGAGAGAUAUACCAUUUCUCUCUG,0.231 ratio
CGCCUGCCGGCAGAAUGUCCCUGGCUGCUUAUUGCGUCAUCUGUUGCAGAAGAAUAGGAACCUCUACUUCCCCACCAAAAAGUGGCACACACUGGAGAGAUAUCAGAAAUAUAAUAAAGU,0.286 ratio
UUGAAGAAAUCAGCAUUUCUAACAGAAGUGAGCCAAAAGGAAAAUUACGCCGGAGCAAAGUUCAGUGACCCACCUUCCCCUAGUGUCCUCCCAAAGCCUCCGAGUCACUGGAUGGGAAGU,0.175 ratio
AGGGUAUGAUAUAUAUGGUAUGCAUACCAUGUAUACACAUUACCUGAGGUCAGAGUCAAUGUUGGAAACACAUACACACUUCAGUCUGUAAAUAUUCUUCCUCACUGAAACCUGUGCUUC,0.0398 ratio

# Mixed results
Molecule,target,assay,system,conditions,how to read,quantity,value
"PhoQ, residues 284 288 289 292 302 303 TAVSDG","PhoP, residues 12 14 15 18 19 LHHSG (Escherichia coli, UniProt P23836)","Sort-seq, item: YFP reporter",E. coli,"PhoQ-PhoP variant library, with: 10 µM Mg2+","relative to: high Mg2+ state, higher = stronger signaling",fold induction,3.2
